Results of several laboratories.
Each line is one published result; not all experiments were run side by side. Several values in a cell are separate wells, animals, samples, runs or records. ± gives the spread as reported.
GLP1R: Glucagon-like peptide 1 receptor (GLP1R, Homo sapiens, UniProt P43220)
AKT1: RAC-alpha serine/threonine-protein kinase (AKT1, Homo sapiens, UniProt P31749)
Sequence of UniProt Q64663 (whole entry, unmodified, looked up): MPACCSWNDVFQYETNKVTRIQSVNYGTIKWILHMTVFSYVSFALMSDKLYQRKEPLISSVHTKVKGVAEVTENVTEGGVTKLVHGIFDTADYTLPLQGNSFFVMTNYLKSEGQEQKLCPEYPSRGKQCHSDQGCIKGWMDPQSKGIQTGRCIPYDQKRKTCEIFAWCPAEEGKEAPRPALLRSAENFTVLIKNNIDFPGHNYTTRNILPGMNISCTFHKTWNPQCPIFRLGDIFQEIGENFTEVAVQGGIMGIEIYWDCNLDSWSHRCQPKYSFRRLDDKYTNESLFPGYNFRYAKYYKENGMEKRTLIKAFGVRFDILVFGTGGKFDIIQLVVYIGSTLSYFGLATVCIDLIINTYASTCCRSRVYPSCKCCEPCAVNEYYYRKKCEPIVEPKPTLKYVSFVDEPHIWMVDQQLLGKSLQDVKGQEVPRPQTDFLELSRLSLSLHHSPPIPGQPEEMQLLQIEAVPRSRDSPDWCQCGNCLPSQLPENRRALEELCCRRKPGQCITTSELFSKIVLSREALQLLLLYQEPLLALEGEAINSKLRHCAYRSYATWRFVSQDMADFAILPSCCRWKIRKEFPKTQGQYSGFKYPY
Sequence of UniProt Q14524 (whole entry, looked up): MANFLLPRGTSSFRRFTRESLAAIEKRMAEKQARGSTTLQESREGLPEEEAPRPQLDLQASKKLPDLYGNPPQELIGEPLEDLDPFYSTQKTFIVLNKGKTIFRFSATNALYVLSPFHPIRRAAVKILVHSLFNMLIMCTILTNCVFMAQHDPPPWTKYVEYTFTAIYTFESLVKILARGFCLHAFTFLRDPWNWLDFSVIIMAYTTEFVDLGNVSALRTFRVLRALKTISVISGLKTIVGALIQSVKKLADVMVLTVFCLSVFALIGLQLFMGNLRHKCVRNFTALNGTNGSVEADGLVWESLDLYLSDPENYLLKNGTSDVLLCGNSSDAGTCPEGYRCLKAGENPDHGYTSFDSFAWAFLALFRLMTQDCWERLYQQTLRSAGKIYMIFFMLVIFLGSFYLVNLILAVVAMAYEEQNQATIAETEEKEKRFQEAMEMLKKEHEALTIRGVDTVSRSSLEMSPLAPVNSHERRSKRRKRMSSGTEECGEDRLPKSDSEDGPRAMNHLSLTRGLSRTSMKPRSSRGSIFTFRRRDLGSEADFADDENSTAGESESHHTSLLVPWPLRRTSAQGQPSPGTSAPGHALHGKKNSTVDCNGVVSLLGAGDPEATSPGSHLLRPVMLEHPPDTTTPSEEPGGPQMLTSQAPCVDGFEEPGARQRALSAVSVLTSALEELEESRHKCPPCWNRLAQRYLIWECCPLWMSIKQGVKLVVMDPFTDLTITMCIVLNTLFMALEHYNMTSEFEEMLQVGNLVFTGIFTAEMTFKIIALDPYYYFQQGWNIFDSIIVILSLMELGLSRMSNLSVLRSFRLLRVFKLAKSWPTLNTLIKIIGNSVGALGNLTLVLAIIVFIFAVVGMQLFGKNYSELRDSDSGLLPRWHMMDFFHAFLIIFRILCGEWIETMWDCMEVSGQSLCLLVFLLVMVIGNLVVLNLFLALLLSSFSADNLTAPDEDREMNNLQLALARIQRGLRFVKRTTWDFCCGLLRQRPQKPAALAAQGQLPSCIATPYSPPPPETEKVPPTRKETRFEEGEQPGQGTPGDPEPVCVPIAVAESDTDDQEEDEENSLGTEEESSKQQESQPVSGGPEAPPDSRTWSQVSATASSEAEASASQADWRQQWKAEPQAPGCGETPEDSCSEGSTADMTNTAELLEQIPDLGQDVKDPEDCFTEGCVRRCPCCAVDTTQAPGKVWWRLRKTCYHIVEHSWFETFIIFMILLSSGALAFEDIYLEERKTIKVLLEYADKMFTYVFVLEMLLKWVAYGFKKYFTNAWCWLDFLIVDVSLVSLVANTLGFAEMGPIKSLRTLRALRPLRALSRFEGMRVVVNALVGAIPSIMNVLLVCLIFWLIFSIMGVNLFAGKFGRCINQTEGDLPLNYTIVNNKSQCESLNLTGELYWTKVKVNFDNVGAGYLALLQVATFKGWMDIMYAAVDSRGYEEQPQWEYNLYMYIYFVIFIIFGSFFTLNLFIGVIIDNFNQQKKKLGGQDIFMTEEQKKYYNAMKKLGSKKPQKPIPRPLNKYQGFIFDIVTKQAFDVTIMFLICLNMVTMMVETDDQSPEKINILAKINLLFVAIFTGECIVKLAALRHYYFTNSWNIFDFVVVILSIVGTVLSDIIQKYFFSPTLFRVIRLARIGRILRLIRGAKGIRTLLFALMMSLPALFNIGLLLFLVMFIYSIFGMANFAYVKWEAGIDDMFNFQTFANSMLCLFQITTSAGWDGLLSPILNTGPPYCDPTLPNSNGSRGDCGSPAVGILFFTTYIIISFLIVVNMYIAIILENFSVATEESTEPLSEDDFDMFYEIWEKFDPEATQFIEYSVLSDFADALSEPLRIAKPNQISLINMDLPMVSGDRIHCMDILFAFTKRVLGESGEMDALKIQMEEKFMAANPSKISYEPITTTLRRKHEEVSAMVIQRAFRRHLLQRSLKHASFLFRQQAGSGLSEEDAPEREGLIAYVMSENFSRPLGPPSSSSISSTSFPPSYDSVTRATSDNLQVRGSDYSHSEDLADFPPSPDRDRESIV
Sequence of UniProt P31749 (whole entry, looked up): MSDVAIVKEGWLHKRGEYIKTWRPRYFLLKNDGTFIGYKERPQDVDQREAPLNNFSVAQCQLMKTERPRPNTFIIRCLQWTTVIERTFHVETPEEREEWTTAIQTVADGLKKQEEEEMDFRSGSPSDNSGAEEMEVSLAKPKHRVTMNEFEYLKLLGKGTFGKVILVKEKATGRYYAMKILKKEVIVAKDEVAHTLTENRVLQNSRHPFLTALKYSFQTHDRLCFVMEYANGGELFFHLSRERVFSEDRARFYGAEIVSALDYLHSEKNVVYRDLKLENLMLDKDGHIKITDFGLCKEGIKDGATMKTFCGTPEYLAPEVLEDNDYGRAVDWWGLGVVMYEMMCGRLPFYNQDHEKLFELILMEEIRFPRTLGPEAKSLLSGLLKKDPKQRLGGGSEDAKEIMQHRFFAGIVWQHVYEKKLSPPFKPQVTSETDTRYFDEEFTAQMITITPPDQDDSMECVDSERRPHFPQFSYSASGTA
Sequence of UniProt P11388 (whole entry, looked up): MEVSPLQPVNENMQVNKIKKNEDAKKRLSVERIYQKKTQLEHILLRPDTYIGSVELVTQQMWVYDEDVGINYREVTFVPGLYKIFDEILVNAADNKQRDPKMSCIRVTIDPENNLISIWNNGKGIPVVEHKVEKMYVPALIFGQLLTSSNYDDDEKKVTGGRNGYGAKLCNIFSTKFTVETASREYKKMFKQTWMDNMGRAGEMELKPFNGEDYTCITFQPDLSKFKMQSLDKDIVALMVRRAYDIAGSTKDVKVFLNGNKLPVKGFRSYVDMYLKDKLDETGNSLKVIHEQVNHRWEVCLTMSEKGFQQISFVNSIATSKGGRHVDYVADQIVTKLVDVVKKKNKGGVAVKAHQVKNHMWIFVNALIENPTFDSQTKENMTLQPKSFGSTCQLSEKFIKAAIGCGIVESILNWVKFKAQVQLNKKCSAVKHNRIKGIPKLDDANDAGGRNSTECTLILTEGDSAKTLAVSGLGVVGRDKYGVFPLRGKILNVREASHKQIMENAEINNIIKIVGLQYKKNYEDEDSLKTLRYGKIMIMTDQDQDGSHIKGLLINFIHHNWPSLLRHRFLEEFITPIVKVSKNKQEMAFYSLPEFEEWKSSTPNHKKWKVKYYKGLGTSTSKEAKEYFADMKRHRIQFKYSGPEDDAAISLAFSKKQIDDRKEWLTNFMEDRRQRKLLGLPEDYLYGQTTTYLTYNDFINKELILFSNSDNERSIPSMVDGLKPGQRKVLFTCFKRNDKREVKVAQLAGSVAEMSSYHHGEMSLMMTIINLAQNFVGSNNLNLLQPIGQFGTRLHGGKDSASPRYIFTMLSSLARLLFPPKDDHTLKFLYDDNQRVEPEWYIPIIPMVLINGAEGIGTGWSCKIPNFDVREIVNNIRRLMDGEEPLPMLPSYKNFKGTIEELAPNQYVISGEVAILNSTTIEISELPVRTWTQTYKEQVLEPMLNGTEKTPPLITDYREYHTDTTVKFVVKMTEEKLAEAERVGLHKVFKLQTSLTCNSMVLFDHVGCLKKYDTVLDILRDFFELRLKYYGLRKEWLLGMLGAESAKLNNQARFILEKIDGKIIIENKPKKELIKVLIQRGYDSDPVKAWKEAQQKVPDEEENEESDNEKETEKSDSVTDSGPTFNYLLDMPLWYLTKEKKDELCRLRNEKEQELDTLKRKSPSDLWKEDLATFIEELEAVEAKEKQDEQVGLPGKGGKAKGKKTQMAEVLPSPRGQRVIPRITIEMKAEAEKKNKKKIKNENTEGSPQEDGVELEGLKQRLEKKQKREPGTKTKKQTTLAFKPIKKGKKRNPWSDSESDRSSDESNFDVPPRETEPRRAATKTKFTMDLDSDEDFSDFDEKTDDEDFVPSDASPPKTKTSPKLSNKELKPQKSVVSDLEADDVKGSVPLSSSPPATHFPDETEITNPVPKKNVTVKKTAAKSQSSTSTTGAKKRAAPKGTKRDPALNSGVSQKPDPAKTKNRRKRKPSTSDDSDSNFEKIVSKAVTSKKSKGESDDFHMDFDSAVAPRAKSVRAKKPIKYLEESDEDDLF
Sequence of UniProt P07195 (whole entry, looked up): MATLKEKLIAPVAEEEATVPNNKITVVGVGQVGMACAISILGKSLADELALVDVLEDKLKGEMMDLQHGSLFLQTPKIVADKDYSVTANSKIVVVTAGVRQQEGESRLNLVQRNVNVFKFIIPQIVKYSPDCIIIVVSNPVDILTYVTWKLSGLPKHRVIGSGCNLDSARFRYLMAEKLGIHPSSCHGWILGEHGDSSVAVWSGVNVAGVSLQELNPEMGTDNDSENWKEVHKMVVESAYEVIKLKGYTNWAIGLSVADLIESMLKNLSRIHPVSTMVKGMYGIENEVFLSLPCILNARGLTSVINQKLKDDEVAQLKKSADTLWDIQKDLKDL

SMILES	target	assay	system	setting	scale	measurement	value
CCN(CCO)CCCC(C)Nc1ccnc2cc(Cl)ccc12 (centres unmarked)	Sodium channel protein type 5 subunit alpha (SCN5A, Homo sapiens, UniProt Q14524)	sodium current, whole-cell patch clamp		300 µM, without ATX-II		activation slope factor	5.06 mV/e-fold and 2.43 mV/e-fold and 4.17 mV/e-fold
COc1cc(C[C@H]2C(=O)OC[C@@H]2Cc2ccc(OC)c(OC)c2)ccc1O	3',5'-cyclic-AMP phosphodiesterase 4D (PDE4D, Homo sapiens, UniProt Q08499)	isothermal titration calorimetry				-TΔS	1.13 ± 0.402 kcal/mol
Cc1cccc(N2CC(C(=O)O)CC2=O)c1 (centres unmarked)	Transcription intermediary factor 1-beta, PHD-bromodomain (TRIM28, Homo sapiens, UniProt Q13263)	binding, affinity selection mass spectrometry			reference: other proteins in batch	fold enrichment	0.957
O=C(Nc1c[nH]nc1-c1nc2ccc(CN3CCOCC3)cc2[nH]1)NC1CC1	NanoBiT HiBiT/LgBiT luciferase	inhibitor, HiBiT luminescence counterscreen	conditioned medium only	5 µM, 24 h	reference: vehicle	luminescence signal reduction	-4.14%
CC(=O)N[C@H]1[C@H]([C@H](O)[C@H](O)CO)OC(O[C@H]2[C@@H](O)[C@@H](CO)O[C@@H](Oc3ccc([N+](=O)[O-])cc3)[C@@H]2O)(C(=O)O)C[C@@H]1O (some centres unmarked)	Sialidase-2 (Homo sapiens, UniProt Q9Y3R4)	substrate		10 min, pH 5.0, 37 °C		Vmax	0.0013 ± 0.0001 mM/s
CC[C@H](C)[C@@H]1NC(=O)[C@H]([C@@H](C)CC)NC(=O)[C@@H](Cc2ccc(O)cc2)NC(=O)CSC[C@@H](C(N)=O)NC(=O)[C@H](CCCNC(=N)N)NC(=O)[C@H](CCCCN)NC(=O)[C@H](CC(C)C)NC(=O)[C@H](CO)NC(=O)[C@H](CO)NC(=O)[C@H](CC(C)C)NC(=O)[C@H](Cc2ccccc2)NC(=O)[C@H](C(C)C)NC(=O)CNC(=O)[C@H](CC(C)C)NC(=O)[C@@H]2CCCN2C(=O)[C@H]([C@@H](C)O)NC(=O)[C@H](CC(=O)O)NC1=O	Vacuolar protein sorting-associated protein 29 (VPS29, Homo sapiens, UniProt Q9UBQ0)	binding, ITC		25 °C, protein alone		ΔG	-9.5 ± 0.06 kcal/mol
Cc1ncsc1-c1ccc(CNC(=O)[C@@H]2C[C@@H](O)CN2C(=O)[C@@H](NC(=O)CCCCCCCCCCCC(=O)NCCCCC#Cc2cccc(-c3nn(-c4nc(C(=O)O)cs4)c(CC4CC4)c3Cc3ccc(S(N)(=O)=O)cc3)c2)C(C)(C)C)cc1	L-lactate dehydrogenase B chain (LDHB, Homo sapiens, UniProt P07195)	degrader, western blot	PANC-1	1 µM		time to maximal degradation	48 h
Nc1ncnc2c1ncn2[C@@H]1O[C@H](COP(=O)(O)OP(=O)(O)OP(=O)(O)O)[C@@H](O)[C@H]1O	P2X purinoceptor 7 (P2rx7, Rattus norvegicus, UniProt Q64663, Q143A)	ion current, agonist, two-electrode voltage clamp	Xenopus laevis oocytes	2 µM	reference: highest concentration response	normalized current	0
COc1cc(Nc2ncc3c(n2)-c2ccc(Cl)cc2C(c2c(F)cccc2OC)=NC3)ccc1C(=O)O	PKC beta II	inhibitor, biochemical kinase		1 µM		remaining activity	104%
CC[C@H](C)[C@H](NC(=O)[C@H](Cc1ccccc1)NC(=O)[C@H](CCC(=O)O)NC(=O)[C@H](CCCNC(=N)N)NC(=O)[C@H](C)NC(=O)[C@H](C)NC(=O)[C@H](CCC(N)=O)NC(=O)[C@H](CCC(=O)O)NC(=O)[C@H](CCC(=O)O)NC(=O)[C@H](CC(C)C)NC(=O)[C@H](Cc1ccc(O)cc1)NC(=O)[C@H](CO)NC(=O)[C@H](CO)NC(=O)[C@@H](NC(=O)[C@H](CC(=O)O)NC(=O)[C@H](CO)NC(=O)[C@@H](NC(=O)[C@H](Cc1ccccc1)NC(=O)[C@@H](NC(=O)CNC(=O)[C@H](CCC(=O)O)NC(=O)[C@H](C)NC(=O)CCc1cnc[nH]1)[C@@H](C)O)[C@@H](C)O)C(C)C)C(=O)N[C@@H](C)C(=O)N[C@@H](Cc1c[nH]c2ccccc12)C(=O)N[C@@H](CC(C)C)C(=O)N[C@H](C(=O)N[C@@H](CCCNC(=N)N)C(=O)NCC(=O)N[C@@H](CCCNC(=N)N)C(=O)N[C@@H](CCCCNC(=O)COCCOCCNC(=O)COCCOCCNC(=O)CC[C@H](NC(=O)CCCCCCCCCCCCCCCCC(=O)O)C(=O)O)C(=O)NCC(=O)NCC(=O)N[C@@H](CO)C(=O)N[C@@H](CCCCNC(=O)[C@H](CCCCNC(=O)[C@H](CCCCNc1c(NCCCCCN(O)C(=O)CCC(=O)NCCCCCN(O)C(=O)CCC(=O)NCCCCCN(O)C(C)=O)c(=O)c1=O)Nc1c(NCCCCCN(O)C(=O)CCC(=O)NCCCCCN(O)C(=O)CCC(=O)NCCCCCN(O)C(C)=O)c(=O)c1=O)NC(=O)[C@H](CCCCNc1c(NCCCCCN(O)C(=O)CCC(=O)NCCCCCN(O)C(=O)CCC(=O)NCCCCCN(O)C(C)=O)c(=O)c1=O)Nc1c(NCCCCCN(O)C(=O)CCC(=O)NCCCCCN(O)C(=O)CCC(=O)NCCCCCN(O)C(C)=O)c(=O)c1=O)C(=O)O)C(C)C	GLP1R	agonist, CRE luciferase reporter	BHK cells	metal-free DFO conjugate, with: 1% HSA	reference: parent peptide	fold potency loss	6.7
COc1cccc(-n2nc3c4cc(Cl)ccc4[nH]cc-3c2=O)c1	Gamma-aminobutyric acid receptor subunit alpha-6/beta-3, with delta subunit (Gabra6/Gabrb3, Rattus norvegicus, UniProt P30191+P63079)	ion current, modulator, two-electrode voltage clamp		10 nM, α6β3δ receptor, with: GABA EC3-10		efficacy	101 ± 1.4%
CC(C)(O/N=C(\C(=O)N[C@@H]1C(=O)N2C(C(=O)[O-])=C(C[n+]3ccccc3)CS[C@H]12)c1csc(N)n1)C(=O)O	beta-lactamase RAD-1 (Riemerella anatipestifer)	substrate, continuous spectrophotometric hydrolysis		30 °C		Km	729 ± 58 µM
CC[C@H](C)[C@H](NC(=O)[C@H](Cc1ccccc1)NC(=O)[C@H](CCC(=O)O)NC(=O)[C@H](CCCNC(=N)N)NC(=O)[C@H](C)NC(=O)[C@H](C)NC(=O)[C@H](CCC(N)=O)NC(=O)[C@H](CCC(=O)O)NC(=O)[C@H](CCC(=O)O)NC(=O)[C@H](CC(C)C)NC(=O)[C@H](Cc1ccc(O)cc1)NC(=O)[C@H](CO)NC(=O)[C@H](CO)NC(=O)[C@@H](NC(=O)[C@H](CC(=O)O)NC(=O)[C@H](CO)NC(=O)[C@@H](NC(=O)[C@H](Cc1ccccc1)NC(=O)[C@@H](NC(=O)CNC(=O)[C@H](CCC(=O)O)NC(=O)[C@H](C)NC(=O)CCc1cnc[nH]1)[C@@H](C)O)[C@@H](C)O)C(C)C)C(=O)N[C@@H](C)C(=O)N[C@@H](Cc1c[nH]c2ccccc12)C(=O)N[C@@H](CC(C)C)C(=O)N[C@H](C(=O)N[C@@H](CCCCNc1c(NCCCCCN(O)C(=O)CCC(=O)NCCCCCN(O)C(=O)CCC(=O)NCCCCCN(O)C(C)=O)c(=O)c1=O)C(=O)NCC(=O)N[C@@H](CCCNC(=N)N)C(=O)N[C@@H](CCCCNC(=O)COCCOCCNC(=O)COCCOCCNC(=O)CC[C@H](NC(=O)CCCCCCCCCCCCCCCCC(=O)O)C(=O)O)C(=O)NCC(=O)NCC(=O)N[C@@H](CO)C(=O)N[C@@H](CCCCNc1c(NCCCCCN(O)C(=O)CCC(=O)NCCCCCN(O)C(=O)CCC(=O)NCCCCCN(O)C(C)=O)c(=O)c1=O)C(=O)O)C(C)C	GLP1R	agonist, CRE luciferase reporter	BHK cells	Zr-loaded DFO conjugate, with: 1% HSA	reference: parent peptide	fold potency loss	1.9
CC[C@@H]1[C@H](F)C(=O)N[C@@H]1COc1nccc2cc(C(N)=O)c(OC)cc12	AKT1	ATP probe binding, KiNativ profiling, measured: ATP loop probe site	THP-1 cell lysate	0.2 mM		inhibition	11.8%
Nc1nnc(-c2ccccc2O)cc1N1CCN(Cc2ccc(OCCOCCNc3cccc4c3C(=O)N(C3CCC(=O)NC3=O)C4=O)c(F)c2)CC1 (centres unmarked)	SWI/SNF-related matrix-associated actin-dependent regulator of chromatin subfamily A member 4 (SMARCA4, Homo sapiens, UniProt P51532)	degrader, immunoblot	SMARCA4 wild-type lung cancer cells	96 h, median of twelve cell lines		Dmax	35%
CC[C@H](C)[C@H](NC(=O)[C@H](Cc1ccccc1)NC(=O)[C@H](CCC(=O)O)NC(=O)[C@H](CCCNC(=N)N)NC(=O)[C@H](C)NC(=O)[C@H](C)NC(=O)[C@H](CCC(N)=O)NC(=O)[C@H](CCC(=O)O)NC(=O)[C@H](CCC(=O)O)NC(=O)[C@H](CC(C)C)NC(=O)[C@H](Cc1ccc(O)cc1)NC(=O)[C@H](CO)NC(=O)[C@H](CO)NC(=O)[C@@H](NC(=O)[C@H](CC(=O)O)NC(=O)[C@H](CO)NC(=O)[C@@H](NC(=O)[C@H](Cc1ccccc1)NC(=O)[C@@H](NC(=O)CNC(=O)[C@H](CCC(=O)O)NC(=O)[C@H](C)NC(=O)CCc1cnc[nH]1)[C@@H](C)O)[C@@H](C)O)C(C)C)C(=O)N[C@@H](C)C(=O)N[C@@H](Cc1c[nH]c2ccccc12)C(=O)N[C@@H](CC(C)C)C(=O)N[C@H](C(=O)N[C@@H](CCCNC(=N)N)C(=O)NCC(=O)N[C@@H](CCCNC(=N)N)C(=O)N[C@@H](CCCCNC(=O)COCCOCCNC(=O)COCCOCCNC(=O)CC[C@H](NC(=O)CCCCCCCCCCCCCCCCC(=O)O)C(=O)O)C(=O)NCC(=O)NCC(=O)N[C@@H](CO)C(=O)N[C@@H](CCCCNc1c(NCCCCCN(O)C(=O)CCC(=O)NCCCCCN(O)C(=O)CCC(=O)NCCCCCN(O)C(C)=O)c(=O)c1=O)C(=O)NCC(=O)NCC(=O)N[C@@H](CO)C(=O)N[C@@H](CCCCNc1c(NCCCCCN(O)C(=O)CCC(=O)NCCCCCN(O)C(=O)CCC(=O)NCCCCCN(O)C(C)=O)c(=O)c1=O)C(=O)NCC(=O)NCC(=O)N[C@@H](CO)C(=O)N[C@@H](CCCCNc1c(NCCCCCN(O)C(=O)CCC(=O)NCCCCCN(O)C(=O)CCC(=O)NCCCCCN(O)C(C)=O)c(=O)c1=O)C(=O)NCC(=O)NCC(=O)N[C@@H](CO)C(=O)N[C@@H](CCCCNc1c(NCCCCCN(O)C(=O)CCC(=O)NCCCCCN(O)C(=O)CCC(=O)NCCCCCN(O)C(C)=O)c(=O)c1=O)C(=O)O)C(C)C	GLP1R	agonist, CRE luciferase reporter	BHK cells	metal-free DFO conjugate, with: 1% HSA	reference: parent peptide	fold potency loss	7.1
Cc1cc(-c2ccnc3[nH]cc(F)c23)cc(F)c1[C@@]1(O)[C@H](C)CN(C(=O)CN)C[C@@H]1C	AKT1	ATP/ADP probe binding, KiNativ	HEK293T lysate	10 µM, ATP loop peptide		probe labelling inhibition	-43%
O=c1nc(SCc2cc(F)cc(C(F)(F)F)c2)nc(SCc2ccc3nc(Cl)ccc3c2)[nH]1	DNA topoisomerase 2-alpha (TOP2A, Homo sapiens, UniProt P11388)	ATPase activity		125 µM, with: ATP 2 mM		ATP hydrolysis rate	0.425 µM/min and 2.77 µM/min
CCO[C@@H](Cc1ccc(OCCn2c(C)ccc2-c2ccc(SC)cc2)cc1)C(=O)O	Peroxisome proliferator-activated receptor alpha (Ppara, Mus musculus, UniProt P23204)	receptor activation, agonist		species mouse	reference: internal control agonist	Emax	109%
CCS(=O)(=O)N1CC(CC#N)(n2cc(-c3ncnc4[nH]ccc34)cn2)C1	Alpha-1-acid glycoprotein 1 (ORM1, Homo sapiens, UniProt P02763)	fluorescence quenching		303 K		Gibbs free energy	-6.17 kcal/mol
